# Assay results gathered from unrelated publications.
# Parts stem from different laboratories: compare values within a part only.

# Series 1 — method: RNA Bind-n-Seq; molecule type: RNA; sample: in vitro; tested at: 365 nM; baseline: no-protein control; reading: higher = stronger binding
# Target: RNA binding protein fox-1 homolog 2, RRM domain, GST-SBP tag (RBFOX2, Homo sapiens, UniProt O43251-10, residues 100-194)
# Notes: natural RNA segment, single round, ends assumed
# Target sequence (chain): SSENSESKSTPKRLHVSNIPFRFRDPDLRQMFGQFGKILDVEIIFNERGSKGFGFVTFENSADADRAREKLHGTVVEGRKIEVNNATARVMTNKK
Strand,RBNS enrichment (R)
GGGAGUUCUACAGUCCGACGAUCGCAGAGCUUGCAUUGGGUUUACCUCGGUCUCAUUCAUUCAUGGAGCCAAGGGUGGGGUUUCACCUGCGAACAUCAGACUGACUUGCUGGCGUCAAGAGCAGUUGACUCACUGGAAUUCUCGGGUGCCAA,0.565
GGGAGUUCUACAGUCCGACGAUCACUAUAAUAUGGAUCAUCUCUACUUCUGUAUUUAUUUAUUUAUUACUAGACCUCAACCACAGUCUUCUUUUUCCCCUUCCACCUCUCUUUGCCUGUAGGAUGUACUGUAUUGGAAUUCUCGGGUGCCAA,3.62
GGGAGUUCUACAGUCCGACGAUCAGCAGCAUGCAAUUCCUAGUGACUUGCUGCACAGUAUUGUAUCAUAAUUACAGGAAGUUUUUAUUUUUAAAACUGGAUCUGGGGUAUAUUCAUUUGCCCCAUCACCUCUGUGGAAUUCUCGGGUGCCAA,0.319
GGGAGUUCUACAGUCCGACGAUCUGGAAGGAAAGCAGCAUGUUCCAGUUCUAAAAUGCAGUUACCAGACCCAUCACUUUAAAUCCUUAAAGUUAGAAGCUAGCAAAUUUUCUGUAGUGCAGAACGUUUAUUGCUGGAAUUCUCGGGUGCCAA,18.7
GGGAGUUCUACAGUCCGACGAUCUGAGUUGGGAGGGGAAUGUUCCCACUCAGAUCCUGACAGGGAAGAGGAGGAGAUGAGAGACUCUGGCAUGAUCUUUUUUUUGUCCCACUUGGUGGGGCCAGGGUCCUCUCUGGAAUUCUCGGGUGCCAA,31.9
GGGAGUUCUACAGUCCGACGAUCUGCCUUGAGCAAGUCUCAUUUUCUUUGUAAGCUGCCUCUUCCGCCAUUUCAUCUGAGGUUGCUGUCUUUUUGGUGGGGAGGGGUUUGGGGAACCCAUCAGGUAUGAGUGAUGGAAUUCUCGGGUGCCAA,1.17
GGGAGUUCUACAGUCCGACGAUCGGUGAGUGGAGACUCAGCCCAGCUGCUCUUGAGCUUGGAUAGUUAUACAUUUUGGUGACUUCUGACUCUCCUUCCACCUCCCCACUGUACACUGUGGUACAGAUAGUUGGUGGAAUUCUCGGGUGCCAA,0.357
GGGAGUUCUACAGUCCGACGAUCUUCCCAAGCCACAGCCCUUUUGUCUCGGGGAACUCCCUUCUUCACAGAGAAGGAGGUGGGGGCUGUGAAUUGGUUGUUAGUUUCUGAAUUUUACCAAAUAAAGUAGAAUCUGGAAUUCUCGGGUGCCAA,0.364
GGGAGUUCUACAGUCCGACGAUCGCCAGUGGUGAACAGUGUCUGAUCAUGUGAAACACAACACGUUUUCCUCUCUGAGUCCCAGCUAUGGGGAACAUCUGGAGUCAGCAGAACCAUUGGGACCUGAGGCAGGAUGGAAUUCUCGGGUGCCAA,0.385

# Series 2 — method: protein-binding microarray; molecule type: double-stranded DNA, one strand shown; sample: in vitro; tested at: 250 nM; notes: 60-bp whole probe; together with: salmon DNA 0.4 mg/ml; baseline: random background probes; reading: higher = stronger binding; shared flanks, not repeated: GCCTAGCAC … GTCTTGATTCGCTTGACGCTGCTG
# Target: Interferon regulatory factor 7, full length, phosphomimetic (IRF7, Homo sapiens, UniProt Q92985, residues 1-503, S101K/S471D/S472D/S475D/S476D/S477D/S483D/S484D/S487D)
# Target sequence (chain): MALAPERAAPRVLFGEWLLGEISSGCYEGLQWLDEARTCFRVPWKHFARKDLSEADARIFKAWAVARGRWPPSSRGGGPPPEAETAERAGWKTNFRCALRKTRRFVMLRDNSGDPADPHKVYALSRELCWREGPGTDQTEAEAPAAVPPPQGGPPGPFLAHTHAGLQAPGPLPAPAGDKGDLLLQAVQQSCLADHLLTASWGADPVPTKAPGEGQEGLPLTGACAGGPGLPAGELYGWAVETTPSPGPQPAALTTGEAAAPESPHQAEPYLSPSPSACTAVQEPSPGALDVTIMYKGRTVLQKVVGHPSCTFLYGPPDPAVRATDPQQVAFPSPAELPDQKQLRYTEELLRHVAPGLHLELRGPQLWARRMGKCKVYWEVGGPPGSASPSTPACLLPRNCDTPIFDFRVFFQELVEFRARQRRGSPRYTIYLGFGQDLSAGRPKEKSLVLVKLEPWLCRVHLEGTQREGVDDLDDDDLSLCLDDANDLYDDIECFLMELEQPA
Strand,log fluorescence
GACGGACGGGACTATCGGGACGTGCTA,-0.67 z-score
TTAGATTTCGGGATTCGATTAGTGCTA,2.22 z-score
GAAGGTATCGACACTGGGGACGTGCTA,-0.362 z-score
TTATGACTGGGTCTCGGTTAGTGCTAG,0.749 z-score
TTAGGTTTCGATTTCGGTTAGTGCTAG,13.7 z-score
GACTATTTCGGGACTGGAGACGTGCTA,0.782 z-score
TTAGGACTTCTACTGCTTTAGTGCTAG,0.0652 z-score
GACGGTATAGGTTTCGGGACGTGCTAG,2.21 z-score
TTAGGTTTCGGAATGGGTTAGTGCTAG,10.1 z-score
GACGGTTTCCTTATTCTGACGTGCTAG,2.97 z-score
TACGGACTGCTTTTCCTGACGTGCTAG,0.101 z-score
TTAGGTATCCTTAACCTTTAGTGCTAG,-0.285 z-score
GACGATTTCCGTATCGAGACGTGCTAG,1.09 z-score
GGCGAACTGAGACTGGAGACGTGCTAG,-0.385 z-score
TTAGAACGGAGTTTCGATTAGTGCTAG,8.11 z-score
TCACCTTTTAATTTTTAACTGTGCTAG,0.752 z-score
GACGGTATCGGTATCGGTACGTGCTAG,1.41 z-score
TGAGGACTGCTACTGCTTTAGTGCTAG,-0.952 z-score
GACGGTAACGACTATCGGGACGTGCTA,-0.667 z-score
TTAGGTTTCGGTTCCGGTTAGTGCTAG,12.4 z-score
TTAGGTTTCGTCTTTCGGTTAGTGCTA,9.66 z-score
TTAGAACTAAGTATCGATTAGTGCTAG,1.09 z-score
GACGGTTTCGGTATCGGGATGTGCTAG,10.3 z-score
TTAGATATCAGTCTCGATTGGTGCTAG,2.21 z-score
TCACCTCTTTTTTTGGTACTGTGCTAG,0.668 z-score

# Series 3 — method: RNA Bind-n-Seq; molecule type: RNA; sample: in vitro; tested at: 200 nM; notes: whole 134-nt RNA, ends assumed; together with: 150 mM LiCl; baseline: input library; reading: higher = stronger binding; all molecules: 7-deaza-guanosine replaces G
# Target: Ras GTPase-activating protein-binding protein 1, full length (G3BP1, Homo sapiens, UniProt Q13283)
# Sequence of UniProt Q13283 (whole entry, looked up): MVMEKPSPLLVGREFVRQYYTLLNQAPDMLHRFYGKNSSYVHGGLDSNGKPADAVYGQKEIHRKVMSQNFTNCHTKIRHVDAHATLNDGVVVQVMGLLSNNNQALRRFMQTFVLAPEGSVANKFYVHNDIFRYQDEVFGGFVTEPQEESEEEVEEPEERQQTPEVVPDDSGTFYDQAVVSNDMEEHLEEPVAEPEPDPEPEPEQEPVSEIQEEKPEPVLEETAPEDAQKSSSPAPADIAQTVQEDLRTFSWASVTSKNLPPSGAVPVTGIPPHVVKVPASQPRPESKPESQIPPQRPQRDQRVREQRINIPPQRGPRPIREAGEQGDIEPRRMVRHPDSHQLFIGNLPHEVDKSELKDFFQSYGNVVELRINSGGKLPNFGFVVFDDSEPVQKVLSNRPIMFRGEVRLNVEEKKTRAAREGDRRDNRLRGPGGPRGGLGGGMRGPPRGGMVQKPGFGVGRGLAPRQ
Strand,log2 enrichment
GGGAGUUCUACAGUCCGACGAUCCAAGUCCUGUGCUACACAUCGUAUGUACCGAAUCGGGCCCGGGCCCGGCCCGGGGAAAGUAUUAUGUUACGCCGUUCGGAUCUGCACUUCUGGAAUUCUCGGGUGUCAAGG,-1.16
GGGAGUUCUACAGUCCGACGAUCUGGGAGGUGGAUUUUGUUUAUUUUUUUAGCUCAUUUCCAGGGGUGGGAAUUUUUUUUUAAUAUGCGUCAUGAAUAAAGUUGUUUUUGAAAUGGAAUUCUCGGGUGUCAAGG,-0.266
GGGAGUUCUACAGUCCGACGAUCCCUCAAGUCCUGUGCUACACAUCGUAUGUACCGAAUCGGGGAGGGAGGGAGGAAAGUAUUAUGUUACGCCGUUCGGAUCUGCACUUCCAGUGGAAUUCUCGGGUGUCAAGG,-0.106
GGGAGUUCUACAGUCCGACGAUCUUCACAGGUAAGUGGGGCAGUGUCCGGACCAGUGGACGCAGCAGUGGCCUUGGCACCGAUGUGGGCUCCCGGCUAGCUGGCAGAGACGCGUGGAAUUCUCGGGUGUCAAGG,0.222
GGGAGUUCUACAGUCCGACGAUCUGGGAGGUGGAUUUUGUUUAUUUUUUUAGCUCAUUUCCAGGGGUGGGAAUUUUUUUUUAAUAUGUGUCAAGAAUAAAGUUGUUUUUGAAAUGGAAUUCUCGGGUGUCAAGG,-0.352
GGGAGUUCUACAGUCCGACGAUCAGUCCUGUGCUACACAUCGUAUGUACCGAAUCGGGGAAAGGGGUUUUUGGGGUGGGGAAAGUAUUAUGUUACGCCGUUCGGAUCUGCACUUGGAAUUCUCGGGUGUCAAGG,-0.089
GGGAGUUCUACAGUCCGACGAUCAGUCCUGUGCUACACAUCGUAUGUACCGAAUCGGGGUUUUUUUGGGGAGGGGUGGGGAAAGUAUUAUGUUACGCCGUUCGGAUCUGCACUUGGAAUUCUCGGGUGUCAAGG,-0.0324
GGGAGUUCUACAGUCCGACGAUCUUUUAUGUGGAGUUAUGAAGACCUACAGGCAGAGAGAGAAACAGGGGAGCAAGGUGCAAGAGUCCACAAAGGGACCUGAUGAAGCGAAGAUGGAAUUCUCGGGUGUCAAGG,-0.52
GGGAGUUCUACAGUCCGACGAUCACCAUGCAGGUGGGCAUCUUUGGGAAGUGGGGCAAGGGGGGGAUAGGGAGGGGGGUAACACUUUGAAAACAGGUGGUCCCAGGUCGUUUCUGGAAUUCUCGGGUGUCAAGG,-0.103
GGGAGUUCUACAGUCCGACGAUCCUCAAGUCCUGUGCUACACAUCGUAUGUACCGAAUCGGCCCGGCCCGGGCCCGGAAAGUAUUAUGUUACGCCGUUCGGAUCUGCACUUCCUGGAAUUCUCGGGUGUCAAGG,-0.442
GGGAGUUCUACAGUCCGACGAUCCAAGUCCUGUGCUACACAUCGUAUGUACCGAAUCGGGUUUGGGAAAAAGGGUGGGAAAGUAUUAUGUUACGCCGUUCGGAUCUGCACUUCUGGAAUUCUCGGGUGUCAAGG,-0.604

# Series 4 — method: protein binding microarray; molecule type: double-stranded DNA, one strand shown; sample: in vitro; tested at: not given; baseline: not given; reading: higher = stronger binding
# Target: Histone acetyltransferase KAT6A, both winged helices, GST fusion (KAT6A, Homo sapiens, UniProt Q92794, residues 1-181)
# Notes: 8-mer, flanks averaged, mean of 2 arrays, mostly near background
# Construct (chain): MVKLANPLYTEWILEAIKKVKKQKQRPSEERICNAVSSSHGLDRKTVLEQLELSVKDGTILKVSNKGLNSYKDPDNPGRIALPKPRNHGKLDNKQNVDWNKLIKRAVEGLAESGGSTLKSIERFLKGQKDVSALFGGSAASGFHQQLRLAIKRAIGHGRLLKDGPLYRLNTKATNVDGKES
Strand,E-score
ACTACAGG,-0.0978
ACGATGAA,-0.0254
AGCTAGAT,-0.306
AACGCAGT,0.129
CCTTTTTC,-0.276
GACTGATC,-0.00341
ACTGACTG,0.0272
AGGGGGTG,-0.212
GACGAGCC,-0.0149
ACTGGGAC,-0.203
AACTGTGA,0.0474
AAACACTC,-0.0399
AGTATTCA,-0.0282
ACCCGCTG,0.19
CTTGCGGA,0.103
ATGCGGCA,0.151
GAGCTTCA,-0.0021
ATATGCAT,0.0406
ACTGAAAC,-0.0358
AGTTCAAC,-0.093
ATCTGAGG,-0.138
CGTATACA,0.0995
CCCGATGC,0.138
CGCTAACG,0.302
ATAGGGCG,-0.0159
